# Published values of several laboratories.
# Each numbered part is a random draw from the data of one study; scales do not carry over between parts. Several values in a cell are separate wells, animals, samples, runs or records.
# UniProt P51817, sequence (whole entry, looked up): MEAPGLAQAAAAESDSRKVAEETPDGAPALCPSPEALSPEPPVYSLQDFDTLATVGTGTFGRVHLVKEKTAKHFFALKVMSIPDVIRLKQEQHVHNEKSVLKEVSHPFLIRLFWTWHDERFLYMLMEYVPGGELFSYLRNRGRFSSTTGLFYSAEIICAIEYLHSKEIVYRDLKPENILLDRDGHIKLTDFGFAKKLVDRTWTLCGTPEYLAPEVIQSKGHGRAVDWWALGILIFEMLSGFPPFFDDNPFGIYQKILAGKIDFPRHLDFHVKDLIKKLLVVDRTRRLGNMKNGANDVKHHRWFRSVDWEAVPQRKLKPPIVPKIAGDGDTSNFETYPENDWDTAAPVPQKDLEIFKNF
# UniProt P24723, sequence (whole entry, looked up): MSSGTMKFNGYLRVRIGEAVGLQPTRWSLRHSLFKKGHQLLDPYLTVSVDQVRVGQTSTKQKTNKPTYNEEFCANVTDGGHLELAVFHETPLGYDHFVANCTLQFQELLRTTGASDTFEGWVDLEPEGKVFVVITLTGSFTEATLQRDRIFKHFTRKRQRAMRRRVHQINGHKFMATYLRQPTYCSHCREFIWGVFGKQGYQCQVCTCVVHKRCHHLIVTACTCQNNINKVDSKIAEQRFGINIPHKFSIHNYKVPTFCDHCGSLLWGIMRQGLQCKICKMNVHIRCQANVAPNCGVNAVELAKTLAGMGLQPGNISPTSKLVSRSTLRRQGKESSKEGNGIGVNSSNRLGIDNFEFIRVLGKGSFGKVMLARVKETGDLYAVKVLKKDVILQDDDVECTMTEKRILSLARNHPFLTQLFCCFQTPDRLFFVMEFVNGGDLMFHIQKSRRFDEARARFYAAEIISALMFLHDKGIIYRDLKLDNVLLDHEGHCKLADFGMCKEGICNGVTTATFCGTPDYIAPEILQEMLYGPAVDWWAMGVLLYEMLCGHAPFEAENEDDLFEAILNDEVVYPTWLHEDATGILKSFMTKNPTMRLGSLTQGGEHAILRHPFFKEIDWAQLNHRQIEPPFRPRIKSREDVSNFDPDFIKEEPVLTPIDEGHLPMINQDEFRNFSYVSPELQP
# UniProt Q15835, sequence (whole entry, looked up): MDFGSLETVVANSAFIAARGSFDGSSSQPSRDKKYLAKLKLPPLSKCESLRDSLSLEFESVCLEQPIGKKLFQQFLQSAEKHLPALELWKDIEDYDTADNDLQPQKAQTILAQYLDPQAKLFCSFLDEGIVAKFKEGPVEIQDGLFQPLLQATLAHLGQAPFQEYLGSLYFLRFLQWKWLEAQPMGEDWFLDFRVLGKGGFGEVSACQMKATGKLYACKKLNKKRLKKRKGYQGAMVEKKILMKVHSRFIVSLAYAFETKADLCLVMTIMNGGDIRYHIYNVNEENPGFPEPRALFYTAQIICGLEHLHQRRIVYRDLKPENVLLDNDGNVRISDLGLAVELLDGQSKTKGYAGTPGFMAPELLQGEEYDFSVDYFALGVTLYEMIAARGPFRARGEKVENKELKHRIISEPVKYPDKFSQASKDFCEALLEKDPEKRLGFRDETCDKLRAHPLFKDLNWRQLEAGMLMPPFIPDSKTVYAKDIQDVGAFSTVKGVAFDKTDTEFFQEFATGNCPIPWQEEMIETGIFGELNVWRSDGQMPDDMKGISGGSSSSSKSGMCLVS
# UniProt O14730, sequence (whole entry, looked up): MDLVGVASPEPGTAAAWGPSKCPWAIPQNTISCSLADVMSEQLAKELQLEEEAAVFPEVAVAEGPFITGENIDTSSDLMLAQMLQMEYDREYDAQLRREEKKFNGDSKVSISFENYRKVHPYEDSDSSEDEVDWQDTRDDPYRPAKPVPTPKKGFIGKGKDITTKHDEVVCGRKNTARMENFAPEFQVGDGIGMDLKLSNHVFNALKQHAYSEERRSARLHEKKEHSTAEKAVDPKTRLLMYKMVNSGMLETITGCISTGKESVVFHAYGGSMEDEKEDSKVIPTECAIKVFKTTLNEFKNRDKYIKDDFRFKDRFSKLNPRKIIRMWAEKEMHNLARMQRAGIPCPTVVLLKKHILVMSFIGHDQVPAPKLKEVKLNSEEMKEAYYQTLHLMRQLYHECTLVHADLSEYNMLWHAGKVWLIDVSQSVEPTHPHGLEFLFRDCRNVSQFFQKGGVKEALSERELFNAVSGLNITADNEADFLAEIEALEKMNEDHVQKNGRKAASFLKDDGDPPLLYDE

# Series 1 — read-out: enzyme activity; mode: inhibitor; tested at: 0.5 µM; baseline: control
# Target: Cyclin-dependent kinase 9, with cyclin K (CDK9, Homo sapiens, UniProt P50750)
# UniProt P50750, sequence (whole entry, looked up): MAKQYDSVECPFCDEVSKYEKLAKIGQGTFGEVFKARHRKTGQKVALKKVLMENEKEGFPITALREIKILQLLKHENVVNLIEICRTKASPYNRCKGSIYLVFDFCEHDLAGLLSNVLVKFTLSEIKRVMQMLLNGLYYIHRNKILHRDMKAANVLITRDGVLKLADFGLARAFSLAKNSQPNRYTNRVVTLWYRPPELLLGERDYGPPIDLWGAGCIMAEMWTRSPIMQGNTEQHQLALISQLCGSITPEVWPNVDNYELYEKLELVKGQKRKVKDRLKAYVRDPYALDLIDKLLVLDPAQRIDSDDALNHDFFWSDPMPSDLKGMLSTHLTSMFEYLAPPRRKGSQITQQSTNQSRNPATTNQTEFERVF
Structure (SMILES),remaining activity
COc1cc2nccc(Oc3ccc(NC(=S)NC(=O)c4ccccc4C)cc3)c2cc1OC,108%
O=c1c2ccccc2[nH]c(=S)n1CCN1CCC(=C(c2ccc(F)cc2)c2ccc(F)cc2)CC1,104%
CNC(=O)c1cc(Oc2ccc(NC(=O)Nc3ccc(Cl)c(C(F)(F)F)c3)cc2)ccn1,101%
O=C1NC(=O)C(c2cn(CCCO)c3ncccc23)=C1c1cnccn1,89.5%
Nc1ncnc2n[nH]c(Nc3ccc(F)cc3)c12,92.4%
Nc1[nH]nc2nc3ccccc3nc12,88.3%
Nc1ccc2ncnc(NCCc3ccc(Oc4ccccc4)cc3)c2c1,104%
O=C(O)c1ccc2c3c1cccc3c(=O)n1c3ccccc3nc21,76.4%
O=C1NC(=O)C(c2cn(CCCn3ccnc3)c3ccccc23)=C1Nc1ccccc1,64.6%
NCCNc1ncc(C(N)=O)c(Nc2cccc(C(F)(F)F)c2)n1,95.6%
COc1cc2ncnc(Nc3ccc(Oc4ccccc4)cc3)c2cc1OC,96.7%
COc1ccc(CNC(=O)Nc2ncc([N+](=O)[O-])s2)cc1,82.8%
OCC(O)CCON=C1C(c2c(O)[nH]c3ccccc23)=Nc2ccccc21 (stereo not shown),33.2%
Cn1c2ccccc2c2c3c(c4c5ccccc5n(CCC#N)c4c21)CNC3=O,55.2%
CN(C)c1ccc(C=C2C(=O)Nc3ccccc32)cc1,100%
O=S(=O)(c1cccc2cnccc12)N1CCCNCC1,86%
N#CC(C#N)=C(N)/C(C#N)=C/c1ccc(O)cc1,100%
O=C(CCCc1ccc(-c2ccccc2F)cc1)Nc1ccc(O)cc1,96.7%
Oc1ccc(-c2nc(-c3ccncc3)c(-c3ccc(F)cc3)[nH]2)cc1,101%
COc1ccc(OC)c2c(=S)c3ccccc3[nH]c12,92.2%
COc1ccc(C(=O)Nc2sc3c(c2C(N)=O)CCCC3)cc1OC,85.7%
CCOC(=O)c1c(C)[nH]c(/C=C2\C(=O)Nc3ccccc32)c1C,97.5%
CO[C@H]1C[C@@H]2CC[C@@H](C)[C@@](O)(O2)C(=O)C(=O)N2CCCC[C@H]2C(=O)O[C@H]([C@H](C)C[C@@H]2CC[C@@H](O)[C@H](OC)C2)CC(=O)[C@H](C)/C=C(\C)[C@@H](O)[C@@H](OC)C(=O)[C@H](C)C[C@H](C)/C=C/C=C/C=C/1C,106%
O=C(Nc1cccc(Nc2cc(Nc3cccc(C(F)(F)F)c3)ncn2)c1)C1CC1,102%
Cc1nc(-c2ccccc2)c(-c2ccncc2)o1,101%

# Series 2 — tested at: 1 µM
# Structure (SMILES): CN1CCN(C(=O)c2ccc(NC(=O)Nc3ccc(N(C)c4ccnc(Nc5ccc(CS(C)(=O)=O)cc5)n4)cc3)cc2)CC1
target,read-out,method,remaining binding
"TNIK (Homo sapiens, UniProt Q9UKE5)",binding,competition with immobilised ligand,23%
"RIOK3 (Homo sapiens, UniProt O14730)",binding,,0%
"ABL1 (Homo sapiens, UniProt P00519, F317L)",,,51%
"MYLK (Homo sapiens, UniProt Q15746)",binding,,100%
"EPHB1 (Homo sapiens, UniProt P54762)",binding,competition with immobilised ligand,87%
"PRKX (Homo sapiens, UniProt P51817)",binding,,100%
"EPHA8 (Homo sapiens, UniProt P29322)",binding,competition with immobilised ligand,89%

# Series 3 — read-out: binding; mode: competitor; method: NanoBRET; cell line: HEK293
# Structure (SMILES): CC(=O)N1CCN(c2nc(OC[C@@H]3CCCN3C)nc3c2CCN(c2cccc4cccc(Cl)c24)C3)C[C@@H]1CC#N
# KRAS Q61H: GTPase KRas (KRAS, Homo sapiens, UniProt P01116, Q61H)
target,tested at,normalized BRET
"GTPase KRas (KRAS, Homo sapiens, UniProt P01116, G13D)",33.3 µM,5.17% and 6.36% and 8.9%
KRAS Q61H,15.2 nM,89.8% and 94.3% and 101%
KRAS Q61H,137 nM,86.1% and 96.8% and 85.2%
KRAS Q61H,5.08 nM,93.6% and 98.1% and 101%
"GTPase KRas (KRAS, Homo sapiens, UniProt P01116, G12D)",5.08 nM,97% and 92.2% and 102%
KRAS Q61H,1.69 nM,94.2% and 99.8% and 107%

# Series 4 — method: competition with immobilised ligand; tested at: 1 µM
# Structure (SMILES): O=C(O)[C@@H]1[C@@H](Cn2nnc3ccccc3c2=O)CC[C@H]1C(=O)c1ccc(OCCC2CCOCC2)cc1
target,read-out,remaining binding [%]
"GRK1 (Homo sapiens, UniProt Q15835)",cell-free assay,100
"BLK (Homo sapiens, UniProt P51451)",cell-free assay,95
"CDKL3 (Homo sapiens, UniProt Q8IVW4)",binding,98
"PRKCH (Homo sapiens, UniProt P24723)",cell-free assay,100

# Series 5 — read-out: enzyme activity; mode: inhibitor; tested at: 77 µM; baseline: untreated
# Target: DNA polymerase theta, ATPase domain (POLQ, Homo sapiens, UniProt O75417)
# UniProt O75417, sequence (whole entry, unmodified, looked up): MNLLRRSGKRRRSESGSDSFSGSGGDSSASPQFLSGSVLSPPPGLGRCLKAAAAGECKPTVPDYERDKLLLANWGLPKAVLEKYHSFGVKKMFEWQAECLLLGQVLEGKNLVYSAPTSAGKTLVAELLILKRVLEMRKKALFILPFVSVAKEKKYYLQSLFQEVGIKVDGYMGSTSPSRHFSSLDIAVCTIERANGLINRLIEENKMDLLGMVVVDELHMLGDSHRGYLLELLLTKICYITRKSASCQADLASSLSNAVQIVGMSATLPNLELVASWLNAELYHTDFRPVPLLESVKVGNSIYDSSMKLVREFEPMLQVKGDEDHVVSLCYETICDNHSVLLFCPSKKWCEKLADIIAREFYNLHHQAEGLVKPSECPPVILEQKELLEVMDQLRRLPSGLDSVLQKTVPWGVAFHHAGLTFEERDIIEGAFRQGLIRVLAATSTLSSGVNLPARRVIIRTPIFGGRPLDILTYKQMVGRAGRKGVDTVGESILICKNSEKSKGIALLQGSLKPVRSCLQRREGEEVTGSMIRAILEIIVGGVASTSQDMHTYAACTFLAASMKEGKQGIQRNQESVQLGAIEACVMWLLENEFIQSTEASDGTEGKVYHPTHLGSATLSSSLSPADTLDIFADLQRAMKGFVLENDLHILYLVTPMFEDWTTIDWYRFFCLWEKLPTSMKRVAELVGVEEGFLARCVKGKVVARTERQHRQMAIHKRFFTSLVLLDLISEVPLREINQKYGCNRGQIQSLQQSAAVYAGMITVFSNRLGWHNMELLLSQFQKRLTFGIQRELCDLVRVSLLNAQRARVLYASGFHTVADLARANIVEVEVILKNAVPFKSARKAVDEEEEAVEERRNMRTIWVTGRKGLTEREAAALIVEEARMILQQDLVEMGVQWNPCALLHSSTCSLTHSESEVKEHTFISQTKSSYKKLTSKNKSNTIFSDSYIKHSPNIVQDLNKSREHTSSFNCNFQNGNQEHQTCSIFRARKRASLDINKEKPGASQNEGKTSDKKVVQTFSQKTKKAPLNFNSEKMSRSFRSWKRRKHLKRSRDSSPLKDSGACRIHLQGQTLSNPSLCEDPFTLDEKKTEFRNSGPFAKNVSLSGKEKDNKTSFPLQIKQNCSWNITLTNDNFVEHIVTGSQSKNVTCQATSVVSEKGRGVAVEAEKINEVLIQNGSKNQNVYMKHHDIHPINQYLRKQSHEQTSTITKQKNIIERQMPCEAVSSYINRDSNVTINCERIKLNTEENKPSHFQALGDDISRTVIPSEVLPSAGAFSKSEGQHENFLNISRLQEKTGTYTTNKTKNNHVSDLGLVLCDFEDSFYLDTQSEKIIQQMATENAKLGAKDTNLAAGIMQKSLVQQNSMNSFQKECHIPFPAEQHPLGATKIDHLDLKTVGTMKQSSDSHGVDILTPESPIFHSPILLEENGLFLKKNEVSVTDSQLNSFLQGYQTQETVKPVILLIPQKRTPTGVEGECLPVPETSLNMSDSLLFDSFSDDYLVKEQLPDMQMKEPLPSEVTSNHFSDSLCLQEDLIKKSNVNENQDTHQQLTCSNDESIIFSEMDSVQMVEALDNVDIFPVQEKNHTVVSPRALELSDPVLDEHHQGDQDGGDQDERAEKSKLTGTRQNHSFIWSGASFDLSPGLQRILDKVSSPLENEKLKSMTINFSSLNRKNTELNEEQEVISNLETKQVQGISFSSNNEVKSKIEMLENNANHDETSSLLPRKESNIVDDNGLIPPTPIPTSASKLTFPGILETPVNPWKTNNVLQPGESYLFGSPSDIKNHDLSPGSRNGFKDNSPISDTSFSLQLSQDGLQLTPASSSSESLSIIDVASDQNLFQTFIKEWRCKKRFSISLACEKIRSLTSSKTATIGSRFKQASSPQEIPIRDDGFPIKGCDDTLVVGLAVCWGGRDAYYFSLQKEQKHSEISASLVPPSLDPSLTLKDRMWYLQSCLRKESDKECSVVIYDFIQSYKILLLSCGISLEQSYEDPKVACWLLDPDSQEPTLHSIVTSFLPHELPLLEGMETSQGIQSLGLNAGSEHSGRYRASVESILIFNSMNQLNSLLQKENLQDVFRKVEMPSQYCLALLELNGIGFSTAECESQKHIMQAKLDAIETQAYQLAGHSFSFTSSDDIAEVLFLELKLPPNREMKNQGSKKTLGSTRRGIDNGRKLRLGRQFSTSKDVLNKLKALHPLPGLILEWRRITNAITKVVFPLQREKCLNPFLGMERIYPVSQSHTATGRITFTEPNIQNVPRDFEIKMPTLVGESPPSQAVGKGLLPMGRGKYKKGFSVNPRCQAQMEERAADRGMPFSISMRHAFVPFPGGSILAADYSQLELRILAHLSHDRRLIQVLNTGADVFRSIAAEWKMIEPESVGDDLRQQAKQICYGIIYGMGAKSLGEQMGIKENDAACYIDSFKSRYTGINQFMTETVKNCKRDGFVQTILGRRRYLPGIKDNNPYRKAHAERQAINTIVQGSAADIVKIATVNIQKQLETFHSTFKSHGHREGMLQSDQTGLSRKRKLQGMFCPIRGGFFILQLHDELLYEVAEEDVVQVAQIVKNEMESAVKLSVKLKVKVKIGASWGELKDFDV
Structure (SMILES),remaining activity
CCCCOc1ccc(CC(=O)NO)cc1,100% and 105%
Cn1cnc2c(NCc3ccccc3)nc(NCCO)nc21,101%
C/C(O)=C(\C#N)C(=O)Nc1ccc(C(F)(F)F)cc1,40.5%
C#C[C@]1(O)CC[C@H]2[C@@H]3CCC4=C(CCC(=O)C4)[C@H]3CC[C@@]21C,92.2%
N#C/C(=C\c1ccc(O)c(O)c1)C(=O)NCc1ccccc1,97.1%
CC1=C(C(=O)O)N2C(=O)[C@@H](NC(=O)[C@H](N)c3ccc(O)cc3)[C@H]2SC1,101%

# Series 6 — organism: Sarcocystis neurona; read-out: parasite growth; tested at: 10 µM; time: 96 h; setting: second screen; baseline: untreated
SMILES,log2 fold change
COCC1=C(C(=O)OC(C)OC(=O)OC(C)C)N2C(=O)[C@@H](NC(=O)/C(=N\OC)c3csc(N)n3)[C@H]2SC1 (stereo partly shown),0.36
CC(C)(C)NC(=O)[C@H]1CC[C@H]2[C@@H]3CC[C@H]4NC(=O)C=C[C@]4(C)[C@H]3CC[C@]12C,0.06
CO[C@@H]1[C@@H](O[C@@H]2O[C@H](C)[C@@H](O[C@H]3C[C@@](C)(O)[C@@H](OC(=O)CC(C)C)[C@H](C)O3)[C@H](N(C)C)[C@H]2O)[C@@H](CC=O)C[C@@H](C)[C@@H](O)/C=C/C=C/C[C@@H](C)OC(=O)C[C@H]1OC(C)=O,-0.14
CC(C)(C#N)c1cc(Cn2cncn2)cc(C(C)(C)C#N)c1,0.54
CCCN(CCC)S(=O)(=O)c1ccc(C(=O)O)cc1,0.35
OCc1cccnc1,0.41
CC(=O)S[C@@H]1CC2=CC(=O)CC[C@]2(C)[C@H]2CC[C@@]3(C)[C@@H](CC[C@@]34CCC(=O)O4)[C@H]12,0.16

# For quick reference, copied from above (series 2):
target,read-out,method,remaining binding
"PRKX (Homo sapiens, UniProt P51817)",binding,,100%
"ABL1 (Homo sapiens, UniProt P00519, F317L)",,,51%
"EPHB1 (Homo sapiens, UniProt P54762)",binding,competition with immobilised ligand,87%
"TNIK (Homo sapiens, UniProt Q9UKE5)",binding,competition with immobilised ligand,23%
"MYLK (Homo sapiens, UniProt Q15746)",binding,,100%
"RIOK3 (Homo sapiens, UniProt O14730)",binding,,0%
